# Measured values of several laboratories.
# Every numbered part comes from another study and shows a few of its results, in no order. Changes are numbered by the printed parent chain.
# Sequence of UniProt P08588 (whole entry, looked up): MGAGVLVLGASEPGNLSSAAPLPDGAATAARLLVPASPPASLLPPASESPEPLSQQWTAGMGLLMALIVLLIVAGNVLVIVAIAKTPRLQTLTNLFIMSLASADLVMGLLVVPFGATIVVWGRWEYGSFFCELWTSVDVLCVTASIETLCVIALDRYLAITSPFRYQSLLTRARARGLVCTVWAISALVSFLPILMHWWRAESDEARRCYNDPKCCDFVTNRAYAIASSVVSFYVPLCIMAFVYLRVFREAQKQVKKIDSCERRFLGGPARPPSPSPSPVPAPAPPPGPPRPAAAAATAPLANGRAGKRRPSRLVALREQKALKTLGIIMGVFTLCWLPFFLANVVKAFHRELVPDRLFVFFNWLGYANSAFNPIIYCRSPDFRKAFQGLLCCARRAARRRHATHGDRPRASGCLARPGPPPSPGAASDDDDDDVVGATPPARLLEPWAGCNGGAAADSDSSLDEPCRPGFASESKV

# Study 1
# Target: Sal-like protein 4, full length isoform A (SALL4, Homo sapiens, UniProt Q9UJQ4, residues 1-1053)
# Sequence of UniProt Q9UJQ4 (whole entry, looked up): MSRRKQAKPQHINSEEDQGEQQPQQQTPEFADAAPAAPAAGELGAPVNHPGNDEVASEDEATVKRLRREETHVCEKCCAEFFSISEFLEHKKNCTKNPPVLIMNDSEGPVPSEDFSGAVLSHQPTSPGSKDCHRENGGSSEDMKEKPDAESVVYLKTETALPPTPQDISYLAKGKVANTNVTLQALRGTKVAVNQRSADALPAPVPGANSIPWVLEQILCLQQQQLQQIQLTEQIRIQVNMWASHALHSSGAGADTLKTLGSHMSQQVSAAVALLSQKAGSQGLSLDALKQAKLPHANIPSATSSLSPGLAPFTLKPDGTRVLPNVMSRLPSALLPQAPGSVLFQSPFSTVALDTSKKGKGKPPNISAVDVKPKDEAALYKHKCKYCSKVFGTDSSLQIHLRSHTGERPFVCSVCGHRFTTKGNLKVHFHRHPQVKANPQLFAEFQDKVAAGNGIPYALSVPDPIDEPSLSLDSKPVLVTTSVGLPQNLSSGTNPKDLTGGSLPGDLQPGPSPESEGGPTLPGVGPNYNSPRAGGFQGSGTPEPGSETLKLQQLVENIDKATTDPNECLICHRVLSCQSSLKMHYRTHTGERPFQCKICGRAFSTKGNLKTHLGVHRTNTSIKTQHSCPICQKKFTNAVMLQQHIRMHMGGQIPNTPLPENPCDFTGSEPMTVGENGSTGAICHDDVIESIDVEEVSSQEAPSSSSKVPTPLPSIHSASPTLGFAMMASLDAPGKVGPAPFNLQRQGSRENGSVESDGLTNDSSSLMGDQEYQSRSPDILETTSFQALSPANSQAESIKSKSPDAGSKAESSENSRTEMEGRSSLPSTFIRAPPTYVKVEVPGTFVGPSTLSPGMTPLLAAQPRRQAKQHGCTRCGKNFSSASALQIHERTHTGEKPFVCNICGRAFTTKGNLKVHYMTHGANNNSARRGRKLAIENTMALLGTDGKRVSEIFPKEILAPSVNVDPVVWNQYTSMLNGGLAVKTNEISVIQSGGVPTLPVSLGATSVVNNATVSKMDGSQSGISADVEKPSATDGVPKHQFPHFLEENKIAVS
# Technique: universal PBM
# Form: double-stranded DNA, one strand shown
# Medium: in vitro
# Tested at: 600 nM
# Setting: 8-mer, flanks averaged, mean of replicates
# Reading: higher = stronger binding
Sequence,E-score
GCAGAATA,0.145
AGAGCCTC,-0.251
TAGGGATA,0.127
CATTCTTC,0.0698
AGCCCTCA,-0.198
CTCGGGCA,-0.242
GTCTTAAC,0.0176
TAACGTCA,0.243

# Study 2
# Target: Max-binding protein MNT, bHLH-zipper, MAX partner unstated (MNT, Homo sapiens, UniProt Q99583, residues 220-300)
# Technique: protein-binding microarray
# Form: double-stranded DNA, one strand shown
# Medium: in vitro
# Tested at: not given
# Setting: k-mer, scored over probes, only values ≥0.25
# Reading: higher = stronger binding
# Residues (chain): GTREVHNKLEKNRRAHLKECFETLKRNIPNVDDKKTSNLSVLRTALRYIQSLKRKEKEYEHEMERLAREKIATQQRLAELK
Sequence,E-score
GAACGTGC,0.385
AACTCGTG,0.39
CGTGTGGC,0.346
CATGCCCA,0.334
GATGGGGC,0.254
ACGCGTCA,0.285
GTGCCGCA,0.267
CATGGTAC,0.362

# Study 3
# Target: Hepatocyte nuclear factor 3-alpha (Foxa1, Mus musculus, UniProt P35582, residues 1-468, full length assumed)
# Technique: EMSA with sequencing
# Form: double-stranded DNA, one strand shown
# Medium: in vitro
# Tested at: 10 and 20 nM
# Setting: whole designed probe, mean of two concentrations, ends assumed
# Relative to: negative control set to 0
# Reading: higher = stronger binding
# Target sequence (chain): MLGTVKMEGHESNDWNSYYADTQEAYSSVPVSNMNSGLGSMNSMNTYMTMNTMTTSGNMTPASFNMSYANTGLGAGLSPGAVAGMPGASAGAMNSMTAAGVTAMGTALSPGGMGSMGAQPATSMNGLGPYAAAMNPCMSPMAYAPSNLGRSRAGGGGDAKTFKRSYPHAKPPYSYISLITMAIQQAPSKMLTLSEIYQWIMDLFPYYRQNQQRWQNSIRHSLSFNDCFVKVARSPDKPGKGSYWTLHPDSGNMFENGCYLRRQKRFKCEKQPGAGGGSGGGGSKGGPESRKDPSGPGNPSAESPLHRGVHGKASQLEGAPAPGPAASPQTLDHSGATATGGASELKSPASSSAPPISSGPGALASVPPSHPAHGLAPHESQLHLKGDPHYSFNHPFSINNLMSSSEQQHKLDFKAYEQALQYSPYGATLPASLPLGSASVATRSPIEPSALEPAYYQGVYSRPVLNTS
Sequence,normalised bound fraction
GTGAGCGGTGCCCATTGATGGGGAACTCGGCCAGCCTGGCTTCTGCGCCCCGCCAGGAGGTCGCGGAGCGGAGCGCGGCCAGGAAGTGAGCTGAGAGTGACAGCTCCCCCCACGCTGTTTGTTTATTCATGACTCATTCTCTCCACACACTGGCTCTTCTTTCTTTCGGGAGGAGGGGAGAAAGGAGCGGGAGGGCGGGCGGGCAGGGGAGAGGCAGGCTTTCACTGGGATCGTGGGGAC,0.342 ratio
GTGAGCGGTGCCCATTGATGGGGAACATCTTCCCCCTCTTCCTTGCCCCACCAGCTCACCTTCCCGGGTATATTGGAGATAGGAAATTAATATAAGCCGGCATTCGTTAACCCTCTTCACGCGCATACTGCTGTTTACTTTGGATGAATCATGGTCCTTTGGCGACGCCAGGCTCCGGGAGAGCAAAGCACCGTGTCAGGGCCATGATCCGGGGTGGCCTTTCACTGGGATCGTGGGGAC,0.347 ratio
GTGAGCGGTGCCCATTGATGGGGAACCCCACCTAGCATAAAATCAAGTAAAGGAGATAACAAATACACCTAAATAAATAATCAAAAATTCTAGAGTGGCTTGAAATCTACATACTACTAAGTAATTTTGGAGATGCTGAGAGTAGAACAATATTTATATATGATCAGAGGAATAAAGGAAGTGTCACAGAAAAAATAATATTCCAACTGAGCCATATGATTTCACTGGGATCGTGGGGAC,0.411 ratio
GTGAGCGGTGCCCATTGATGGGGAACATCCAGAGGTTGGGCTTGGCATCCAGTTTCTTGCATGTAGAGGAACAAAGAAAGGAAGAGCTCATGCCCACTCTGTAATTATTCAAAATTTATGTTTACTTAGAATTTATCATGCTGCTTAAAATGATCAGAAAAGATTCTCTTTAAAAACTGCTCTGGCTCTAGTCTAAATTACCAAGATATCAAATCACGATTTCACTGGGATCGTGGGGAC,0.364 ratio
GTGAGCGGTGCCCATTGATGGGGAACTCGGCCAGCCTGGCTTCTGCGCCCCGCCAGGAGGTCGCGGAGCGGAGCGCGGCCAGGAAGTGAGCTGAGAGTGACAGCATGACTCATTCTGTTTGTTTATTCATGTCACATTCTCTCCACACACTGGCTCTTCTTTCTTTCGGGAGGAGGGGAGAAAGGAGCGGGAGGGCGGGCGGGCAGGGGAGAGGCAGGCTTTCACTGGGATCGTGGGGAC,0.404 ratio

# Study 4
# Target: ABI1, truncated, D143A, DHFR fusion (Arabidopsis thaliana)
# Technique: DHFR PCA, deep sequencing
# Medium: yeast
# Setting: methotrexate growth selection, single substitutions
# Together with: (+)-ABA 0.032 µM
# Relative to: wild-type fitted maximum
# Reading: higher = stronger binding
# Starting sequence: PYL1, truncated, DHFR fusion (Arabidopsis thaliana); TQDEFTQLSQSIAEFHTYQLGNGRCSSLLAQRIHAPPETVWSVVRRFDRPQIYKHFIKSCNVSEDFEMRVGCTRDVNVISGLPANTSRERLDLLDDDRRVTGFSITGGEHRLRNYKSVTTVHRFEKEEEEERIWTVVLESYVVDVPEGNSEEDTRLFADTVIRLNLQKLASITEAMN
Change,relative binding score [%]
N114W,0.287
F5E,-2.39
R49Y,1.6
D95H,2.74
I57E,-15.7
T1D,23.6
P50C,-0.594
D96L,-1.51

# Study 5
# Target: HLA class I histocompatibility antigen, C alpha chain, allele C*04:01 (Homo sapiens, UniProt P10321)
# Read-out: peptide-MHC binding
# Form: peptide
# Tested at: concentration not given
Molecule,binding
LEDGIYGIF,inactive
AYPELACAV,inactive
RQMRASAPL,inactive
ITPTIYLLL,inactive
MAMGILHTI,inactive
AENQLFHST,inactive
MPYAAHDPI,inactive
TTIGEWAFW,inactive
MTYLDGHPV,inactive
FPYAIRLVA,inactive
LYSRSFWFF,inactive
VEMQLAVVI,inactive
YTYGAGSYF,inactive
VSITNPFLF,inactive
YYIIETEHL,inactive
RYAYTSVEF,inactive
SVIDHIHYM,inactive
MVRVLTVIKEY,inactive
YAIYTLGEM,inactive
VYTNAIQYV,inactive
LIDGRTSFY,inactive
FYYNAFHW,inactive
RYSHWTKL,inactive
SYMMDDLELI,inactive
FEYGGFPPA,inactive

# Single results of other studies
Substance,tested on,assay,test system,setting,how to read,measurement,result
"Histone H2B type 1-C/E/F/G/I (Homo sapiens, UniProt P62807)","H2AC1 (Homo sapiens, UniProt Q96QV6)",cross-linking MS,,hits only,,interaction screen,cross-linked
AAAVRKPIVLKR,human cyclin B2,"peptide binding, yeast competitive growth sequencing","peptide, Saccharomyces cerevisiae, cyclin B2-Cln2 fusion","concentration not given, peptide tiling library","relative to: Cln2 fusion control, direction not given",binding enrichment score,-0.42
CN(C)C(=O)Oc1cc(OC(=O)N(C)C)cc(C(O)CNC(C)(C)C)c1 (stereo not drawn),"ADRB1 (Homo sapiens, UniProt P08588)",antagonist,,,,IC50,≥ 100 µM

# Excerpt of the above (study 5):
Molecule,binding
MPYAAHDPI,inactive
AENQLFHST,inactive
ITPTIYLLL,inactive
